# Measurements gathered from unrelated publications.
# Every numbered part comes from another study and shows a few of its results, in no order.

# Study 1 — technique: protein binding microarray; form: double-stranded DNA, one strand shown; medium: in vitro; tested at: not given; baseline: not given; reading: higher = stronger binding
# Target: Histone acetyltransferase KAT6A, winged helix 1, GST fusion (KAT6A, Homo sapiens, UniProt Q92794, residues 1-85)
# Notes: 8-mer, flanks averaged, mean of 2 arrays, mostly near background
# Construct (chain): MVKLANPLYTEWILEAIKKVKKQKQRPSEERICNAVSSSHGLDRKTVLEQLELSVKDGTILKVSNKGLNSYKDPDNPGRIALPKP
Oligonucleotide,E-score
AAATTATG,0.0216
CCAAGCGA,0.028
AAAATGTC,-0.122
CGGATGAG,-0.0982
GGTCCGTA,0.239
AGAACAGC,0.0545
TCCGCTCA,-0.0294
CGACTAAG,0.151

# Study 2 — read-out: enzyme activity; tested at: 10 µM
# Target: Replicase polyprotein 1ab, 3C-like proteinase (rep, Middle East respiratory syndrome-related coronavirus, UniProt K9N7C7)
Compound,inhibition [%]
O=C(O[C@@H]1Cc2c(O)cc(O)cc2O[C@@H]1c1cc(O)c(O)c(O)c1)c1cc(O)c(O)c(O)c1,10
COc1cccc2c1C(=O)c1c(O)c3c(c(O)c1C2=O)C[C@@](O)(/C(CO)=N/NC(=O)CCCCCN1C(=O)C=CC1=O)C[C@@H]3O[C@H]1C[C@H](N)[C@H](O)[C@H](C)O1,1
O=c1cc(-c2ccccc2)oc2cc(O)c(O)c(O)c12,47
COC(=O)C1=C(C)NC(C)=C(C(=O)OC)C1c1ccccc1[N+](=O)[O-],15

# Study 3 — cell line: HEK-293T/ACE2; tested at: 10 µM; time: 16 h; baseline: vehicle
Compound,viability
CC[C@@H](CO)NCCN[C@@H](CC)CO,100%
Cc1ccnc(NS(=O)(=O)c2ccc(N)cc2)n1,102%
NC(=O)c1cnccn1,101%

# Study 4 — read-out: enzyme activity; mode: inhibitor; tested at: 20 µM
# Target: Replicase polyprotein 1ab, polymerase (rep, Severe acute respiratory syndrome coronavirus 2, UniProt P0DTD1)
Compound,inhibition
Cc1ccc(C(=O)Cn2c3c(sc2=N)CCCC3)cc1,0.53%
Cc1ccc(C(=O)Nc2cccc(C(F)(F)F)c2)cc1Nc1nc(-c2cccnc2)nc2c1cnn2C,-12.3%
C[C@]12CC[C@H](O)CC1=CC[C@@H]1[C@@H]2CC[C@]2(C)C(c3cccnc3)=CC[C@@H]12,-6.64%
CC1(C)N=C(N)N=C(N)N1OCCCOc1cc(Cl)c(Cl)cc1Cl,2.28%
Nc1n[n+]([O-])c2ccccc2[n+]1[O-],2.75%
C=CCOC(Cn1ccnc1)c1ccc(Cl)cc1Cl (stereo not drawn),-5.51%
CCCOc1ccc(C(=O)OCCN(CC)CC)cc1N,1.86%
N=C(N)SCc1ccc(B(O)O)cc1,-5.82%
CCCN1C[C@H](CSC)C[C@@H]2c3cccc4[nH]cc(c34)C[C@H]21,-1.69%
C1=N/C2=N/c3ccc(OCCN4CCCC4)c(c3)COC/C=C/COCc3cccc(c3)C(=C1)N2,-1.59%
c1ccc(-c2ccc(C(c3ccccc3)n3ccnc3)cc2)cc1 (stereo not drawn),1.08%
O=C(O)c1ccccc1,-5.97%
CCOC(=O)c1ccc(-c2ccc(OC(=O)N(C)Cc3cccc(-c4ccncc4)c3)cc2)cc1,1.09%
CCCCCC(O)CCCC(=O)O (stereo not drawn),-2.7%
CNS(=O)(=O)Nc1nccc(Cc2c(C)c3ccc(Oc4ncccn4)cc3oc2=O)c1F,0.05%
NC(=O)c1ccc(N(C(N)=O)c2c(F)cccc2F)nc1-c1ccc(F)cc1F,-2.31%
CCCCCCCCCCCC(=O)N(CCO)CCO,-1.21%
Cc1cc(C)n(-c2cccc([C@H](CC(=O)O)CN3CC[C@@H](CCc4ccc5c(n4)NCCC5)C3)c2)n1,2.25%
C1Cc2[nH]nc(-c3nn[nH]n3)c2C1,-3.5%
N[C@@H](C(=O)O)c1ccc(C(=O)O)c(C(=O)O)c1,-4.41%
CC12CC3CC(C)(C1)CC(N)(C3)C2,15%
COc1cc2nccc(Oc3ccc(NC(=O)C4(C(=O)Nc5ccc(F)cc5)CC4)cc3)c2cc1OC,7.58%
Oc1c(Cl)cc(Cl)c2cccnc12,-0.73%
O=C(O)COc1nn(Cc2ccccc2)c2ccccc12,0.93%
CCOC(=O)[C@H](C)C[C@@H](Cc1ccc(-c2ccccc2)cc1)NC(=O)CCC(=O)O,-5.18%

# Study 5 — technique: universal PBM; form: double-stranded DNA, one strand shown; medium: in vitro; tested at: 600 nM; reading: higher = stronger binding
# Target: Sal-like protein 4, full length isoform A (SALL4, Homo sapiens, UniProt Q9UJQ4, residues 1-1053)
# UniProt Q9UJQ4, sequence (whole entry, looked up): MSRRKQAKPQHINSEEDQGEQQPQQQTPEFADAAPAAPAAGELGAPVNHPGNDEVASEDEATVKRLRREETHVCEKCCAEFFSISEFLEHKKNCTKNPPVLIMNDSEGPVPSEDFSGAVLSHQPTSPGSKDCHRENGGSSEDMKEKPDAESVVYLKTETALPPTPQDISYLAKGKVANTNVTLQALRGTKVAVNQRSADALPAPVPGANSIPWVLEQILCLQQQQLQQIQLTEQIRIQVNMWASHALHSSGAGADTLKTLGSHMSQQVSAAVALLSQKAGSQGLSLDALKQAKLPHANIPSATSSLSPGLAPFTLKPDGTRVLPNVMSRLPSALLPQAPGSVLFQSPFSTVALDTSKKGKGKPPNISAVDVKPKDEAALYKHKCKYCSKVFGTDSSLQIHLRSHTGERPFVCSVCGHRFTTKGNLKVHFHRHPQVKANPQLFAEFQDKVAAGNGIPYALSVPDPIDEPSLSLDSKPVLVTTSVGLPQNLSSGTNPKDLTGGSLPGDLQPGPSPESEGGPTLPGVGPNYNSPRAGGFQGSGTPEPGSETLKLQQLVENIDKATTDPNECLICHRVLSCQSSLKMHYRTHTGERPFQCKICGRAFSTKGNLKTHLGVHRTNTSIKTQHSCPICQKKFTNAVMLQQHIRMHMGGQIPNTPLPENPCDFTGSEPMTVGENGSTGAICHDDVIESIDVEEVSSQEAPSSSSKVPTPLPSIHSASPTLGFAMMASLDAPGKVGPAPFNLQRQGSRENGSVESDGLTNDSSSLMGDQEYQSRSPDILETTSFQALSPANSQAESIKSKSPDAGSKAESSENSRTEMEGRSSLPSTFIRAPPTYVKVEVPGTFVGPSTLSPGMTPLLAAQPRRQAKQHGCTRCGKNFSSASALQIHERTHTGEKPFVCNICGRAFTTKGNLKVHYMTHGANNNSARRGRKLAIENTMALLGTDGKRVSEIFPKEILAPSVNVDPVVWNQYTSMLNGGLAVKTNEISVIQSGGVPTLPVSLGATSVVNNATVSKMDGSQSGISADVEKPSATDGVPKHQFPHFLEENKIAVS
# Notes: 8-mer, flanks averaged, mean of replicates
Oligonucleotide,E-score
CAATAATC,0.288
AGTCATGA,0.0847
CAACGCAG,-0.197
CTAGGTCA,-0.0352
GTCATACA,0.224
CCCGTAAA,0.0787
CGTACCGC,-0.225
CCATTAAG,0.0784

# Study 6 — technique: RNA Bind-n-Seq; form: RNA; medium: in vitro; tested at: 1 µM; notes: whole 134-nt RNA, ends assumed; with: 150 mM KCl; baseline: input library; reading: higher = stronger binding
# Target: Ras GTPase-activating protein-binding protein 1, RRM domain (G3BP1, Homo sapiens, UniProt Q13283)
# UniProt Q13283, sequence (whole entry, looked up): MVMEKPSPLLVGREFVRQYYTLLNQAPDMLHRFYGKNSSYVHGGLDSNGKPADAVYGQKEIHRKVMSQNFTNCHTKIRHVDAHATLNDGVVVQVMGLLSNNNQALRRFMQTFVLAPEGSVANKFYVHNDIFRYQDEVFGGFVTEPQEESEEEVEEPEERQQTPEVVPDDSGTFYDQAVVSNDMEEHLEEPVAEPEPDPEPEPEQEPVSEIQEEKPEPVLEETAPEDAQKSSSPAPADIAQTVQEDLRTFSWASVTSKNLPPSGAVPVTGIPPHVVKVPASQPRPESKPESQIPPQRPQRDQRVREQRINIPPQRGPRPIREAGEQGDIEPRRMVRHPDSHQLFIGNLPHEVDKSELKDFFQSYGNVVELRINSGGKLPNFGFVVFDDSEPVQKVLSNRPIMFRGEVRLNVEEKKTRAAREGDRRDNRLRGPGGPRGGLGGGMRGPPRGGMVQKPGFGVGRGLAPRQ
# All sequences stand within: GGGAGUUCUACAGUCCGACGAUC … UGGAAUUCUCGGGUGUCAAGG
Oligonucleotide,log2 enrichment
CUCAAGUCCUGUGCUACACAUCGUAUGUACCGAAUCGGGGCGGGGCGGGGCGGGAAAGUAUUAUGUUACGCCGUUCGGAUCUGCACUUCC,0.678
CAAGUCCUGUGCUACACAUCGUAUGUACCGAAUCGGGAGGGAAAAAGGGAAAGGGAAAGUAUUAUGUUACGCCGUUCGGAUCUGCACUUC,0.95
AGUCCUGUGCUACACAUCGUAUGUACCGAAUCAAAUUUAAAUUUAAAUUUUUUUAAAAAAGUAUUAUGUUACGCCGUUCGGAUCUGCACU,-0.812
CUGUGCUACACAUCGUAUGUACCGAAUCGGGGAAAAAAAGGGGAAAAAGGGGUUUUUGGGGAAAGUAUUAUGUUACGCCGUUCGGAUCUG,1.06
CCUCAAGUCCUGUGCUACACAUCGUAUGUACCGAAUCGGGGCGGGCGGGCGGGAAAGUAUUAUGUUACGCCGUUCGGAUCUGCACUUCCA,1.06

# Single results of other studies — technique: RNA Bind-n-Seq; form: RNA; medium: in vitro; baseline: input RNA pool; reading: higher = stronger binding
# UNK zinc fingers 1-6, GST-SBP tag: RING finger protein unkempt homolog, zinc fingers 1-6, GST-SBP tag (UNK, Homo sapiens, UniProt Q9C0B0, residues 30-357)
# UniProt Q9C0B0, sequence (30-357, looked up): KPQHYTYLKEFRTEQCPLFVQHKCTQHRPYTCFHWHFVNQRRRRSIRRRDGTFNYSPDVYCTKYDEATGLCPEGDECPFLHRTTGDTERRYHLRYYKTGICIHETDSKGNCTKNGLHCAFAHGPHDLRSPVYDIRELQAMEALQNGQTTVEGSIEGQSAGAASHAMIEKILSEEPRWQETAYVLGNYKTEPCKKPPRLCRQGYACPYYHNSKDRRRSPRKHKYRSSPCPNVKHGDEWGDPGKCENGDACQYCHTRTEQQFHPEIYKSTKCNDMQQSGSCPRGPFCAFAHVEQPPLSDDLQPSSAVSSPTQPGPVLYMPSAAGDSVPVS
Oligonucleotide,target,tested at,notes,bound/input enrichment
GGGAGUUCUACAGUCCGACGAUCGAACCUAAACUUACCGCAAAAGAGCCAAGCAGCCGCAGUUUUUGUAAAUGUAAAAAUAAUCCGAUCCAGACUUUGUUUCCUUCAAUUUUAAAAAUAAAAAAUACCUCAGUGCUAUGUUUUCAACAGAGGAUUGAGCAUCA,"RING finger protein unkempt homolog, zinc fingers 1-6, SBP tag (UNK, Homo sapiens, UniProt Q9C0B0, residues 30-357)",100 nM,"RNA with constant flanks, ends assumed",0.854 ratio
GGGAGUUCUACAGUCCGACGAUCUACUACUGCUGUGAAGAGUGUAACUUCAUGGCAGUGACAGAAAAUGAAUUGGAAUGCCAUCGAGGCAUUGCACAUGGGGCAGUGGUAAAAUGCCCUAUGGUCACUUCUGAUAUUGCCCAGCAACAGAGGAUUGAGCAUCA,"UNK zinc fingers 1-6, GST-SBP tag",not given,"RNA with constant flanks, human and mouse sites, ends assumed",0.0782 ratio
GGGAGUUCUACAGUCCGACGAUCCGGGGGCGGGGUGGGGGCAGCCCUUUCCCAGGCGGUAGCGGGGGCGGCGUCGCUGUUGCCCUUUUAAGCCGCGGGGCCGCCGCCUCCUGCCGCUGGAGUCGGUUACAAAGGAAGCGCCACCAACAGAGGAUUGAGCAUCA,"UNK zinc fingers 1-6, GST-SBP tag",not given,"RNA with constant flanks, human and mouse sites, ends assumed",0.234 ratio
GGGAGUUCUACAGUCCGACGAUCCCUUCCUUUCUGGCCAGUUCACCAAAAGGCAAAGGCUAUAAUAGGAGGUUAGCGCUUAGCUGGCUUUGGAAGUAAGUCUUUAUUAGUUUUCUGAGGGAGAUCAGAGAUGCACAGCUGGACCAACAGAGGAUUGAGCAUCA,"UNK zinc fingers 1-6, GST-SBP tag",not given,"RNA with constant flanks, human and mouse sites, ends assumed",0.595 ratio

# Some of these lines once more (single results of other studies):
Oligonucleotide,target,tested at,notes,bound/input enrichment
GGGAGUUCUACAGUCCGACGAUCGAACCUAAACUUACCGCAAAAGAGCCAAGCAGCCGCAGUUUUUGUAAAUGUAAAAAUAAUCCGAUCCAGACUUUGUUUCCUUCAAUUUUAAAAAUAAAAAAUACCUCAGUGCUAUGUUUUCAACAGAGGAUUGAGCAUCA,"RING finger protein unkempt homolog, zinc fingers 1-6, SBP tag (UNK, Homo sapiens, UniProt Q9C0B0, residues 30-357)",100 nM,"RNA with constant flanks, ends assumed",0.854 ratio
GGGAGUUCUACAGUCCGACGAUCUACUACUGCUGUGAAGAGUGUAACUUCAUGGCAGUGACAGAAAAUGAAUUGGAAUGCCAUCGAGGCAUUGCACAUGGGGCAGUGGUAAAAUGCCCUAUGGUCACUUCUGAUAUUGCCCAGCAACAGAGGAUUGAGCAUCA,"UNK zinc fingers 1-6, GST-SBP tag",not given,"RNA with constant flanks, human and mouse sites, ends assumed",0.0782 ratio
GGGAGUUCUACAGUCCGACGAUCCGGGGGCGGGGUGGGGGCAGCCCUUUCCCAGGCGGUAGCGGGGGCGGCGUCGCUGUUGCCCUUUUAAGCCGCGGGGCCGCCGCCUCCUGCCGCUGGAGUCGGUUACAAAGGAAGCGCCACCAACAGAGGAUUGAGCAUCA,"UNK zinc fingers 1-6, GST-SBP tag",not given,"RNA with constant flanks, human and mouse sites, ends assumed",0.234 ratio
GGGAGUUCUACAGUCCGACGAUCCCUUCCUUUCUGGCCAGUUCACCAAAAGGCAAAGGCUAUAAUAGGAGGUUAGCGCUUAGCUGGCUUUGGAAGUAAGUCUUUAUUAGUUUUCUGAGGGAGAUCAGAGAUGCACAGCUGGACCAACAGAGGAUUGAGCAUCA,"UNK zinc fingers 1-6, GST-SBP tag",not given,"RNA with constant flanks, human and mouse sites, ends assumed",0.595 ratio
